Experimental data of several laboratories.
Each line is one published result; not all experiments were run side by side.

Under “patients with respiratory failure”, `COc1cc(Nc2ncc3c(n2)-c2ccc(Cl)cc2C(c2c(F)cccc2OC)=NC3)ccc1C(=O)O` is recorded as 4% (cancer patients; oral, dose not given, grade 4 any attribution, with: pembrolizumab).
`FC(F)(F)c1ccc(CNc2ccc(Cc3c[nH]c4ncc(Cl)cc34)cn2)cn1`: “patients with treatment-related adverse event” 18% (measured: aspartate aminotransferase increased; patients with TGCT; oral, 1000 mg/day, all grades).
`CC(C)C[C@H](NC(=O)CNC(=O)c1cc(Cl)ccc1Cl)B(O)O`: “patients with adverse event” 39% (measured: Arthralgia, all grades; newly diagnosed multiple myeloma patients; oral, dose not given, maintenance phase, new onset, cycle 17 or later).
Under “patients with adverse events”, `C[C@@H](c1ccc2nccn2c1)n1nnc2ncc(-c3cnn(C)c3)nc21` is recorded as 1% (measured: treatment-related grade ≥3 Pain; EGFR-mutant MET-altered NSCLC; oral, dose not given, all).
The patients of `CCOc1c([C@H](C)n2nc(C)c3c(N)ncnc32)cc(Cl)c(F)c1[C@@H]1CNC(=O)C1` is reported as 0% (measured: QTcF change above 60 ms; previously treated B-cell malignancy; oral, 30 mg once daily, baseline QTcF ≤450 ms; relative to: baseline).
`Cc1cc(-c2nnc(N)nc2-c2ccc(F)cc2)cc(Cl)n1`: “patients with treatment-related AE” 4.8% (measured: Dizziness; other solid tumours, post-IO; oral, 100 mg once daily, all grades).
`CNC(=O)c1ccc(-c2cnc3ncc(Cc4ccc5ncccc5c4)n3n2)cc1F`: “patients with adverse event” 0% (measured: Nausea; other cancer patients; oral, 600 mg twice daily, expansion cohort, grade 3-4).
Under “patients with treatment-related AEs”, `C=CC(=O)Nc1cc(Nc2nccc(-c3cn(C)c4ccccc34)n2)c(OC)cc1N(C)CCN(C)C` is recorded as 0% (measured: Thrombocytopenia grade ≥3; EGFR-mutant MET-altered NSCLC; oral, dose not given, study).
`O=C(Nc1nc2cccc(-c3ccc(CN4CCS(=O)(=O)CC4)cc3)n2n1)C1CC1` — result for “patients with adverse event”: 0% (measured: bile reflux into stomach; rheumatoid arthritis patients; oral, 150 mg once daily, 4 weeks, any relatedness).
`CNC(=O)c1cc(Oc2ccc(NC(=O)Nc3cc(C(C)(C)C)nn3-c3ccc4ncccc4c3)c(F)c2)ccn1`: “patients with musculoskeletal disorders” 27% (patients; oral, dose not given, cycles 1 and 2, Low AUC subgroup).
`Cc1cc(NC2CCN(C(=O)OC3CCN(C(=O)/C=C/CN(C)C)C3)CC2)n2ncc(C(C)C)c2n1` (stereo not drawn) — result for “patients with Fatigue”: 33% (patients with advanced solid tumours; dose not given, QD arm, any grade).
Under “patients discontinuing for AE”, `C[C@@H](Nc1cc(F)cc(F)c1)c1cc(C(=O)N(C)C)cc2c(=O)cc(N3CCOCC3)oc12` is recorded as 5% (CTCAE v4, measured: any AE; patients with advanced solid tumours; oral, dose not given, phase I dose expansion).

Repeated from above:
Under “patients with adverse events”, `C[C@@H](c1ccc2nccn2c1)n1nnc2ncc(-c3cnn(C)c3)nc21` is recorded as 1% (measured: treatment-related grade ≥3 Pain; EGFR-mutant MET-altered NSCLC; oral, dose not given, all).
Under “patients discontinuing for AE”, `C[C@@H](Nc1cc(F)cc(F)c1)c1cc(C(=O)N(C)C)cc2c(=O)cc(N3CCOCC3)oc12` is recorded as 5% (CTCAE v4, measured: any AE; patients with advanced solid tumours; oral, dose not given, phase I dose expansion).
